Measurements pooled from the literature.
Compare with care: the assays were run in different laboratories. Several values in a cell are separate wells, animals, samples, runs or records. Numbers after ± are the reported error.

The luminescence of `CN(C)c1ccc(-n2cc(COC(=O)[C@@]3(C)C=C(C(=O)OC(C)(C)C)C(=O)CC3)nn2)cc1` is reported as 1460 a.u. (AP-1 reporter HEK293; AP-1 reporter gene, luciferase reporter; 10 µM, 6 h, with: PMA 6 ng/mL; higher = more transcription).
`Cn1ncc2cc(-c3cncc(Cl)c3N3CCC4(CCNC4=O)CC3)ccc21` — result for “log2 fold change”: 4.72 (LS174T; gene expression, microarray, measured: CCL20 mRNA; concentration not given, 24 h; reference: untreated cells).
Under “STAT3 phosphorylation and IL-6 secretion”, `Fc1cncc(-c2ccc3[nH]c4ncnc(N[C@H]5CC[C@H](N6CCOCC6)CC5)c4c3c2)c1` is recorded as “decreased” (OCI-Ly3; concentration not given).
The GI50 of `O=C(CNC(=O)c1ccc(Cl)c(C(F)(F)F)c1)Nc1ccc2[nH]nc(/C=C/c3ccccn3)c2c1` is reported as 1.1 µM (Ba/F3 TEL-VEGFR1; cell growth, CCK-8).
`Cc1cc(Cl)cc(-c2ccnc3cc(CN4C(=O)C5C(C4=O)C5(C)C)sc23)c1C[C@@H]1CNCCO1` (stereo partly drawn): “viable cells (annexin V-/PI-)” 61% and 50.6% and 52.6% (CHP-212 parental (wild-type USP7); annexin V-PI flow cytometry; 1 µM, 48 h).
`C=CC(=O)N1CCCC(n2c(=O)c3ncccc3n(Cc3ccc(Oc4ccccc4)cc3)c2=O)C1` (stereo not drawn) has an IC50 of 2 µM (Farage; cell growth or viability, MTT; 72 h).
`COc1ccc(NC(=O)c2ccc3[nH]c(-c4ccc(N(C)C)cc4)nc3c2)cn1` — result for “dead cell to confluence ratio”: 2.39 and 4.02 and 14.2 (HCEC-hTERT; IncuCyte; concentration not given, 6 h).
For `C=C1CC2(C(=O)OC)C=C(C(=O)OC(C)(C)C)C(=O)C1C2` (stereo not drawn), the luminescence was 6750 a.u. (AP-1 reporter HEK293; AP-1 reporter gene, luciferase reporter; 3 µM, 6 h, with: PMA 6 ng/mL; higher = more transcription).
With `CN(C)Cc1nc(Nc2ccc(-c3cnc4cc(F)ccn34)c3c2C(=O)NC3)ccc1C1CCOC1` (stereo not drawn) the CD40-positive cells was 41% (mouse BMDC; flow cytometry; 10 µM).
`COc1ccc(C([O-])=CC(=O)c2ccc(C(C)(C)C)cc2)cc1.[Cl-].[Ru+2].c1ccc(-c2cccc(-c3ccccn3)n2)nc1` has a phototoxicity index of 1.3 (HL-60; reference: dark IC50 over light IC50).
`CC#CC#C/C=C1/O[C@@]2(CCCCO2)[C@@H](O)[C@@H]1OC(C)=O` — result for “iNOS protein level”: “decreased” (RAW264.7; Western blot; concentration not given, with: LPS).
The IC50 of `CCOc1cncc(-c2ccc(NC(=O)C3(c4ccnc(NS(=O)(=O)C5CC5)n4)CCOCC3)nc2)n1` is reported as 0.25 µM (Caco-2; cell growth or viability, ATP luminescence; 72 h).
For `CC(C)c1ccc(N(C)c2ccc3c(c2)OCC[C@H]3CNc2cnccc2C(=O)O)cc1`, the IC50 was at least 10 µM (ONS-76; cell viability, CellTiter-Glo; 7 days).
For `CO[C@@H]1[C@@H](OC(N)=O)[C@@H](O)[C@H](Oc2ccc3c(O)c(NC(=O)c4ccc(O)c(CC=C(C)C)c4)c(=O)oc3c2C)OC1(C)C`, the colony count was 0.1 (DLD-1 parental; 150 µM, replicate 1).
`COC(=O)c1cc(NC2=NC(=O)C(=Cc3ccc(N(C)C)cc3)S2)ccc1OC(C)=O` has a metabolite level of -0.21 fold change (MCF7; GC-MS, measured: Citric acid; 1 µM; reference: DMSO).
The IC50 of `CNS(=O)(=O)Nc1nccc(Cc2c(C)c3ccc(Oc4ncccc4F)cc3oc2=O)c1F` is reported as over 1 µM (DMS-114; cell viability; 7 days).
The inhibition of `Cc1cc(C)nc(SCC(=O)Nc2ncc(Cc3cccc(OCc4cn(-c5ccc(Cl)cc5)nn4)c3)s2)n1` is reported as 29.2 ± 3.4% (PC-3M-luc; cell viability, MTS; 10 µM).
`CCN(C(=O)c1cc(F)ccc1Oc1nncnc1N1CCC2(C1)CN([C@H](CCCN(C)CCOC)C(C)C)C2)C(C)C` gave a GI50 of over 10 µM (Ramos; cell growth or viability; 72 h).
`C[n+]1cc(/C=N/NC(=O)c2cccc(C(=O)N/N=C/c3cc4ccccc4[n+](C)c3)c2)cc2ccccc21` has a ΔTm of 5.4 ± 0.1 °C (MYC parallel G4 DNA; FRET melting; 1 µM, DNA 0.2 µM).
`CC(C)(C)c1nc(-c2cccc(NS(=O)(=O)c3c(F)cccc3F)c2F)c(-c2ccnc(N)n2)s1.Cc1[nH]c2ccccc2c1CCNCc1ccc(/C=C/C(=O)NO)cc1`: “early apoptotic cells” 22.4 ± 4.3% (C13; annexin V/PI flow cytometry; concentration not given, 48 h; reference: untreated).
`Cn1ncc(-c2ccc3c(=O)[nH]nc(CN)c3c2)c1-c1c(F)c(Cl)cc(OC2CC2)c1C#N` has an IC50 of 4.04 µM (SK-MES-1; cell viability, inhibitor, CellTiter-Glo; 120 h, baseline-subtracted).
The cell growth of `O=C(Nc1nnc2c1c(-c1ccc(Cl)cc1)nc1sc(=Cc3ccco3)c(=O)n12)c1ccccc1` (mixture of isomers) is reported as 60.6% (RXF 393; SRB; 10 µM, NCI60 single-dose screen; reference: untreated).
`CC(=O)OC[C@H]1O[C@@H](n2cc(CSc3nc4ccccc4n3Cc3cn([C@@H]4O[C@H](COC(C)=O)[C@@H](OC(C)=O)C(OC(C)=O)[C@H]4OC(C)=O)nn3)nn2)[C@H](OC(C)=O)C(OC(C)=O)[C@@H]1OC(C)=O` (stereo in doubt) gave a cytotoxicity of 75.6% (Caco-2; MTT; 15.6 ppm).
`C=C1C[C@]2(C(=O)OC)C=C(C(=O)Nc3cccc(C(=O)Nc4ccc(Nc5nccc(-c6cccnc6)n5)c(C)c4)c3)C(=O)[C@H]1C2` has a reporter activity of 0.153 (AP1 reporter HEK293; AP1 reporter gene, inhibitor; 10 µM, 6 h, compound washed out, unit not given, with: PMA; reference: PMA alone).
For `Cc1ccncc1.[Cl-].[Cl-].[Ru+2].c1cc(-c2ccc3cccnc3n2)nc(-c2ccc3cccnc3n2)c1.c1ccc2cc3nc4c5cccnc5c5ncccc5c4nc3cc2c1`, the EC50 was 1.1 µM (A-375; resazurin; with: light 523 nm, 20 mW, 100 J/cm2).
For `CCN(CC)CC(=O)Nc1cccc(-n2cc(-c3ccc4ccc(-c5cn(-c6cccc(NC(=O)CN(CC)CC)c6)nn5)cc4c3)nn2)c1`, the fold regulation was 1.17 (RCC4; PCR angiogenesis array, measured: ITGAV; 5 x IC50, 2 h, normoxia; reference: untreated).
For `C=CC(=O)N1[C@@H](c2ccc3c(c2)OCO3)c2[nH]c3ccccc3c2C[C@H]1C(=O)NC1CC1`, the neuron degeneration was 89.8% and 85.8% (rat DRG neurons; 0.004572 µM, 48 h, with: vincristine 40 nM).
`CN1CCCNC(=O)c2cccc(c2)C(=O)NCCCN(C)CCCNc2cccc3c2C(=O)c2cccc(c2C3=O)NCCC1` — result for “log2 fold change”: -0.466 (SAS; RNA-Seq, measured: MRPS27 mRNA; 1 µM, 6 h; reference: untreated cells).
For `COC1CN([C@H]2CC[C@H]([C@@]3(C)Oc4c(Cl)cc(C(=O)NCc5c(SC)cc(C)[nH]c5=O)c(C)c4O3)CC2)C1`, “log2 fold change” read 1.14 (RNA-seq, measured: UPP1; human, whole blood; dose not given, 24 h; reference: pretreatment baseline).
`CC(C)(C)c1cc(-c2ccc3cccnc3n2)nc(-c2ccc3cccnc3n2)c1.[Cl-].[Cl-].[Ru+2].c1ccc2cc3nc4c5cccnc5c5ncccc5c4nc3cc2c1` gave an EC50 of 5.35 µM (A-375; resazurin; with: light 733 nm, 9 mW, 100 J/cm2).
The ΔTm of `C[n+]1ccc(/C=N/NC(=O)c2ccc3ccc(C(=O)N/N=C/c4cc[n+](C)cc4)nc3n2)cc1` is reported as 3.2 ± 0.4 °C (MYC parallel G4 DNA; FRET melting; 1 µM, DNA 0.2 µM).
Under “log2 fold change”, `Cc1ncsc1-c1ccc(C(C)NC(=O)C2CC(O)CN2C(=O)C(NC(=O)CCCCCCCCCCN2CCCC(Nc3ncc(Cl)c(Nc4ccccc4S(=O)(=O)C(C)C)n3)C2)C(C)(C)C)cc1` (stereo not drawn) is recorded as -2.09 (22Rv1; RNA-seq, measured: ZNF79 mRNA; concentration not given; reference: DMSO).
The phototherapeutic index of `CC(C)(C)c1cc(-c2ccc3cc4ccccc4nc3n2)nc(-c2ccc3cc4ccccc4nc3n2)c1.[Cl-].[Cl-].[Ru+2].c1ccc2cc3nc4c5cccnc5c5ncccc5c4nc3cc2c1` is reported as 25 (A-375; visible light 100 J/cm2; reference: dark EC50 over light EC50).

Excerpt of the above:
The cell growth of `O=C(Nc1nnc2c1c(-c1ccc(Cl)cc1)nc1sc(=Cc3ccco3)c(=O)n12)c1ccccc1` (mixture of isomers) is reported as 60.6% (RXF 393; SRB; 10 µM, NCI60 single-dose screen; reference: untreated).
`CC(=O)OC[C@H]1O[C@@H](n2cc(CSc3nc4ccccc4n3Cc3cn([C@@H]4O[C@H](COC(C)=O)[C@@H](OC(C)=O)C(OC(C)=O)[C@H]4OC(C)=O)nn3)nn2)[C@H](OC(C)=O)C(OC(C)=O)[C@@H]1OC(C)=O` (stereo in doubt) gave a cytotoxicity of 75.6% (Caco-2; MTT; 15.6 ppm).
`C=C1C[C@]2(C(=O)OC)C=C(C(=O)Nc3cccc(C(=O)Nc4ccc(Nc5nccc(-c6cccnc6)n5)c(C)c4)c3)C(=O)[C@H]1C2` has a reporter activity of 0.153 (AP1 reporter HEK293; AP1 reporter gene, inhibitor; 10 µM, 6 h, compound washed out, unit not given, with: PMA; reference: PMA alone).
